Measurements collected from several papers.
Every numbered part comes from another study and shows a few of its results, in no order.

Set 1 — method: competition protein-binding microarray; form: double-stranded DNA, one strand shown; matrix: in vitro; tested at: 2 µM; added: Pho4 competitor, 0.05 µM; reading: higher = stronger binding
Target: Centromere-binding protein 1, full length, His-tagged (CBF1, Saccharomyces cerevisiae, UniProt P17106, residues 1-351)
Sequence of UniProt P17106 (whole entry, looked up): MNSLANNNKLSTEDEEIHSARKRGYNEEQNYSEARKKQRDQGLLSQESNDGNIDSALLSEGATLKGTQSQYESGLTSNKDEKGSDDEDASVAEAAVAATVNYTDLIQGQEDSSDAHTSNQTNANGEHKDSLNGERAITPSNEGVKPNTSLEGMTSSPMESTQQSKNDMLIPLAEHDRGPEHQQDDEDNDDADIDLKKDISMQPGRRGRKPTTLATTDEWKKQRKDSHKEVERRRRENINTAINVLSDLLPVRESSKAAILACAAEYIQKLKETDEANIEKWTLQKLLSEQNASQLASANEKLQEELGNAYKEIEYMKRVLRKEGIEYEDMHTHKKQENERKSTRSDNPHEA
Setting: whole 60-bp probe, lowest competitor level
Strand	fluorescence intensity [a.u.]
GGAGAAACCAATGGGGGCGTGGGTAATGGAAACATTGTCTTGATTCGCTTGACGCTGCTG	78.2
CGTCCTAGTGATTGGACAGTGGGTGCCATGAGGAAGGTCTTGATTCGCTTGACGCTGCTG	80.4
GCACTTAAGGTAAGGCGCATGATGTACCTGTTTTATGTCTTGATTCGCTTGACGCTGCTG	104
GATCCCAGGGAGCGCCTCGTGCCCCAGTGACACACTGTCTTGATTCGCTTGACGCTGCTG	84.9

Set 2 — method: protein-binding microarray; form: double-stranded DNA, one strand shown; matrix: in vitro; tested at: 2200 nM top; setting: 60-bp whole probe; added: salmon DNA 0.4 mg/ml; reference: random background probes; reading: higher = stronger binding
Target: Interferon regulatory factor 7, full length, phosphomimetic (IRF7, Homo sapiens, UniProt Q92985, residues 1-503, S471D/S472D/S475D/S476D/S477D/S483D/S484D/S487D)
Residues (chain): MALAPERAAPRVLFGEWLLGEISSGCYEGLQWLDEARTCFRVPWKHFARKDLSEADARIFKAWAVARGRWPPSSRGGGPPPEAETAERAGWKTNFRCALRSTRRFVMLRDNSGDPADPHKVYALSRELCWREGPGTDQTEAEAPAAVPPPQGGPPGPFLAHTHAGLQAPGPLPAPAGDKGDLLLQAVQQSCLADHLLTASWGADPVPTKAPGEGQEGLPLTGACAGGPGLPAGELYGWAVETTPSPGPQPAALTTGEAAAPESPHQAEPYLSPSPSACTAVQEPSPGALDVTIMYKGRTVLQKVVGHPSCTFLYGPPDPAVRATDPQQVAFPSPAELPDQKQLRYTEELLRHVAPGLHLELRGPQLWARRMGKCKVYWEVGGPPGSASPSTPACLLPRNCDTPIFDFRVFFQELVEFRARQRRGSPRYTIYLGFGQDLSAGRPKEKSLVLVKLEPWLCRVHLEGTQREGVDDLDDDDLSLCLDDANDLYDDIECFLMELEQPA
Strand	fitted relative affinity [z-score]
GCCTAGCACTTAGGTATCCTTCTCCATTAGTGCTAGGTCTTGATTCGCTTGACGCTGCTG	1.04
GCCTAGCACTTAAGTTCCCTTTTCCTTTAGTGCTAGGTCTTGATTCGCTTGACGCTGCTG	3.27
GCCTAGCACGACGGACTGCTTTTCCTCACGTGCTAGGTCTTGATTCGCTTGACGCTGCTG	0.756

Set 3 — method: RNA Bind-n-Seq; form: RNA; matrix: in vitro; tested at: not given; setting: RNA with constant flanks, ends assumed; reference: input RNA pool; reading: higher = stronger binding
Target: RING finger protein unkempt homolog, zinc fingers 1-6, GST-SBP tag (UNK, Homo sapiens, UniProt Q9C0B0, residues 30-357)
Sequence of UniProt Q9C0B0 (30-357, looked up): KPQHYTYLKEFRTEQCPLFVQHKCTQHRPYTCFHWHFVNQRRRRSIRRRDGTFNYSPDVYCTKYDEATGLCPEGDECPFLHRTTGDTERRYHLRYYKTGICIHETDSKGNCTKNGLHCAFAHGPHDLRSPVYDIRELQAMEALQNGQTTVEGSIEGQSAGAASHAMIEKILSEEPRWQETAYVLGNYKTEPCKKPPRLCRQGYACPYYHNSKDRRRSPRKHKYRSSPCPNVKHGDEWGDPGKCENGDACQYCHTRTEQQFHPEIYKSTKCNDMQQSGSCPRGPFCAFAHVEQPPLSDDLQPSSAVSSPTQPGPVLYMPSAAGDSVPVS
Strand	bound/input enrichment
GGGAGUUCUACAGUCCGACGAUCACACCUAGUGACCGUUCCAGAUAUAGAUUAGAUUUGGAAGGAAAUGAGUAUCCUAUUCACCGUACCCCAAACUGUCAUGACCAUGAACGCAACCAUAAAGUGCCUCCACCUAUUAAACCUCAACAGAGGAUUGAGCAUCA	0.655 ratio
GGGAGUUCUACAGUCCGACGAUCUUUCUUGUUUUUCUUUCUCCCCCCCCCCCCCUUCAGUUAACUACUUUUUAAUUGCAAUUCCCGGUAAUUGUGCAUCGUGAUGUGAUUGCUUGGCUAUUGUCUGAAUAUUUCCUUUUAAUUCAACAGAGGAUUGAGCAUCA	2.04 ratio
GGGAGUUCUACAGUCCGACGAUCCACGGCUGAUUCGCUCAUCGGAAGAGCUGCACACAUAGCUGUUCUUGAUUCUGAGAUAUUUUCCGAGAAGUUUUUCCUGGUUGCCGCCCUCAAAUAUUUUCAGUAGGACCGAAGCAUCAUCAACAGAGGAUUGAGCAUCA	0.15 ratio

Mixed results
Molecule	target	assay	system	conditions	scale	quantity	value
PhoQ, residues 284 288 289 292 302 303 SLGVVW	PhoP, residues 12 14 15 18 19 LWHVM (Escherichia coli, UniProt P23836)	Sort-seq, item: YFP reporter	E. coli	PhoQ-PhoP variant library, added: 10 µM Mg2+	reference: high Mg2+ state, higher = stronger signaling	fold induction	16.2

A few entries again (set 3):
Strand	bound/input enrichment
GGGAGUUCUACAGUCCGACGAUCACACCUAGUGACCGUUCCAGAUAUAGAUUAGAUUUGGAAGGAAAUGAGUAUCCUAUUCACCGUACCCCAAACUGUCAUGACCAUGAACGCAACCAUAAAGUGCCUCCACCUAUUAAACCUCAACAGAGGAUUGAGCAUCA	0.655 ratio
GGGAGUUCUACAGUCCGACGAUCUUUCUUGUUUUUCUUUCUCCCCCCCCCCCCCUUCAGUUAACUACUUUUUAAUUGCAAUUCCCGGUAAUUGUGCAUCGUGAUGUGAUUGCUUGGCUAUUGUCUGAAUAUUUCCUUUUAAUUCAACAGAGGAUUGAGCAUCA	2.04 ratio
